Measured values collected from several papers.
Numbered parts are unrelated; each lists some results of a single study. Positions count from the first letter of the parent shown.

Study 1
Target: CCNE1, cyclin fold, Cln2 fusion (human)
Method: yeast growth competition, sequencing
Matrix: yeast
Setting: weak parent motif
Reference: not given
Reading: higher = stronger binding
Parent: SLBP docking peptide (human); ARYKRKLLINDFG
`ARIKRKLLINDFG [Y3I]`: “normalised enrichment score” 0.598.
Under “normalised enrichment score”, `ARYCRKLLINDFG [K4C]` is recorded as -0.234.
For `ARYRRKLLINDFG [K4R]`, “normalised enrichment score” read 0.0757.
`ARYKRFLLINDFG [K6F]`: “normalised enrichment score” 0.195.
Under “normalised enrichment score”, `ARYKRKLLSNDFG [I9S]` is recorded as 1.58.
`ARYKRSLLINDFG [K6S]`: “normalised enrichment score” 0.0242.
For `ARYKRKLLNNDFG [I9N]`, “normalised enrichment score” read 0.3.
For `ARYKRKLLCNDFG [I9C]`, “normalised enrichment score” read 1.1.

Study 2
Target: Histone acetyltransferase KAT6A, both winged helices, GST fusion (KAT6A, Homo sapiens, UniProt Q92794, residues 1-181)
Method: protein binding microarray
Form: double-stranded DNA, one strand shown
Matrix: in vitro
Concentration: not given
Setting: 8-mer, flanks averaged, mean of 2 arrays, mostly near background
Reference: not given
Reading: higher = stronger binding
Target sequence (chain): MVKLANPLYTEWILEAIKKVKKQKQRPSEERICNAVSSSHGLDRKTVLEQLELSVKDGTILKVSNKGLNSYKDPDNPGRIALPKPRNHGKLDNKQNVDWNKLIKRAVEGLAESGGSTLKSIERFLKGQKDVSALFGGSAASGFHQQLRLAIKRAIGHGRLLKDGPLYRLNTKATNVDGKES
With `CGGCTTTA` the E-score was 0.243.
`ACCACAGC` gave an E-score of -0.0151.
`CAACCGTC` has an E-score of 0.0975.
`CCGCCGGC` has an E-score of 0.397.
The E-score of `CAAGAGCC` is reported as -0.0549.
The E-score of `CGTAGACG` is reported as 0.136.
With `AGATGTTG` the E-score was -0.0854.

Study 3
Target: Prothrombin, mature alpha-thrombin (F2, Homo sapiens, UniProt P00734)
Method: aptamer microarray, sandwich
Form: DNA with 2'F-ANA
Matrix: in vitro
Concentration: 200 nM
Setting: whole 15-mer aptamer, many near background
Added: Cy3 exosite-II aptamer, 400 nM
Reading: higher = stronger binding
Sequence: GGTTGGTGTGGTTGG
`2'F-ANA at 1 4 5 8 9 13 15`: “mean fluorescence intensity” 62.9 a.u.
Under “mean fluorescence intensity”, `2'F-ANA at 1 2 4 7 8 9 12 14 15` is recorded as 68.5 a.u.
`2'F-ANA at 5 6 8 13 14 15` — result for “mean fluorescence intensity”: 47.9 a.u.
Under “mean fluorescence intensity”, `2'F-ANA at 1 2 5 7 8 9 10 11 13 14 15` is recorded as 70.1 a.u.
`2'F-ANA at 2 4 5 6 7 8 9 10 11 12 14 15`: “mean fluorescence intensity” 50.9 a.u.
Under “mean fluorescence intensity”, `2'F-ANA at 1 5 7 8 11 13` is recorded as 81.3 a.u.
Under “mean fluorescence intensity”, `2'F-ANA at 1 4 5 8 9 10 11 13 14` is recorded as 43.9 a.u.
Under “mean fluorescence intensity”, `2'F-ANA at 2 3 6 7 8 9 10 11 12 13` is recorded as 320 a.u.
Under “mean fluorescence intensity”, `2'F-ANA at 2 3 7 8 12 15` is recorded as 1210 a.u.
Under “mean fluorescence intensity”, `2'F-ANA at 1 4 5 8 10 13 14` is recorded as 58.4 a.u.
`2'F-ANA at 2 3 4 6 7 8 9 15`: “mean fluorescence intensity” 549 a.u.

Mixed results
`PhoQ, residues 284 288 289 292 302 303 DDMDFR` gave a fold induction of 0.761 (PhoP, residues 12 14 15 18 19 TQAIL (Escherichia coli, UniProt P23836); Sort-seq, measured: YFP reporter; E. coli; PhoQ-PhoP variant library, added: 10 µM Mg2+; reference: high Mg2+ state, higher = stronger signaling).
